Published values from different studies.
Every numbered part comes from another study and shows a few of its results, in no order. Substitutions count along the parent as printed.

Sample 1
Target: POU domain, class 5, transcription factor 1, POU domain (Pou5f1, Mus musculus, UniProt P20263, residues 131-289)
Chain of UniProt P20263 (131-289, looked up): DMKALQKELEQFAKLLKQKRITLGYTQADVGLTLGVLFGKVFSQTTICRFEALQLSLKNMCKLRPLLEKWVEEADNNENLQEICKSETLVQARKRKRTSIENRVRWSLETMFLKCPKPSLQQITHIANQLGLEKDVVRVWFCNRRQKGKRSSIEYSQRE
Method: Spec-seq
Form: double-stranded DNA, one strand shown
Medium: in vitro
Concentration: not given
Setting: whole probe, mean of replicates
Baseline: not given
Reading: lower = stronger binding
All sequences stand within: GAGTCGTCTCGTCAGCAC … CCGTAGAGCACTCAGGTC
Strand	relative binding energy [ln ratio]
ATGCGTAT	-0.204
TGTCTAAT	0.656
ATAATTAT	-1.85
ATGCGCGG	0.391
ATGCGGAT	0.25
ATGCTACC	0.449
ATGCAAAT	-2.22
TCTCTAAT	0.617

Sample 2
Target: TAR DNA-binding protein 43, full length, His tag (TARDBP, Homo sapiens, UniProt Q13148, residues 1-414)
Method: RNA Bind-n-Seq
Form: RNA
Medium: in vitro
Concentration: 20 nM
Setting: 6-mer, flanks averaged, single round
Together with: 150 mM KCl
Baseline: input library
Reading: higher = stronger binding
Strand	6-mer enrichment (R)
CUUUCU	0.585
CAGUAC	0.648
CACGUU	0.608
CGGACU	0.903
AAUUAA	0.663
CCAAGA	0.708
UAGGCU	0.742
GUGGCC	1.43

Sample 3
Target: RING finger protein unkempt homolog, zinc fingers 1-6, GST-SBP tag (UNK, Homo sapiens, UniProt Q9C0B0, residues 30-357)
Chain of UniProt Q9C0B0 (30-357, looked up): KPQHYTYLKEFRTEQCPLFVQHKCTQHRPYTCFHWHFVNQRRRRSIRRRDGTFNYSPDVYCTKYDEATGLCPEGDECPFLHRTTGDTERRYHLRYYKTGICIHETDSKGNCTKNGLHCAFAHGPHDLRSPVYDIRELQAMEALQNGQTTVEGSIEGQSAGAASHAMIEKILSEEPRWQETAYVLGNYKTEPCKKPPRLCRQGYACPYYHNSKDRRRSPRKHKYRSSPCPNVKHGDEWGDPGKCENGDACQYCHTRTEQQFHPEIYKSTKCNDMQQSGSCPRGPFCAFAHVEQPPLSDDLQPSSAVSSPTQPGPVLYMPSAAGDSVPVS
Method: RNA Bind-n-Seq
Form: RNA
Medium: in vitro
Concentration: not given
Setting: RNA with constant flanks, human-mouse chimeric sites, ends assumed
Baseline: input RNA pool
Reading: higher = stronger binding
All sequences stand within: GGGAGUUCUACAGUCCGACGAUC … CAACAGAGGAUUGAGCAUCA
Strand	bound/input enrichment [ratio]
UACUCAACUUUCUUGCCACAUUUUGAAUUCCAAGACAUUAUUCCUCCAGAUGACUUCCUAACUAGUGAUGAAGAGCAAGAUUUGGUUUUAUUUGGAAGUUUGAGAGGACAAGUUGUUGGA	0.473
GUGACUGACAUUAAAAUUUCCCCUCAGCAAAGAAGUGCAGUAGUCACCAUAAUUCCAUCUGUGGUGAGUGCCAGUCAGAUUGUGGAGCUGGUCCCAGAACUCAGUUUAGACAUGGGAACU	0.4
CGGAGCCCCUCCCUCUCACAGGCCCAAGAUAUAACCCACCAGUGCCUUUUGUCUUCCUGUCAGCUCUGUCAAUCACGCCUGUCCUCUCACGCCCACACCAAGUGCCCAAAGUGGGGAGGG	0.385
AAAGAGAAACUAAAGCAACUAAUAGAGAAGAGGAUUGGCAAAGAGAAUUUCAUAGAGAAACUAGGAUUUAUUAGCAAACAUGAGUUAGUAUUCCAGACGUCUCAGAAACCCCAGCCAAAC	3.18
UCAGGAACCCAGACAAAUAUGAAUGUAAAUGAAGUCAUUAGCAAUAGAGCAAUUGAAAUGUUAGGAGGUGAACUUGGCAGCAAGAAGCCUGUGCACCCCAAUGAUCAUGUUAACAAAAGC	1.8
CUGGCACUCUAUCAGAUAGAUUACUUUUUAAAUGUAGAUGUAAUUUUAAAAAUGAAUGGCUACUUUACACGUUUAACUAGGGUUUUACUAUAUAUGUGUACAUAUGUAUAUAUAUAUAUA	7.28
GAUAAGAAAAGCUUGUUGGAGACCCGCUUGCAUGUCACUGGUAGAGAACUGAGGUCCCAAAUAGCUGAAACCUUUGGAUUUCAAGAAAAUUACAUCAAGAUCGUAAUAAAUAAGAAACAG	0.44
CCUGCUCAGAUCACCAUGAAAGUAAUCCAAGGCUUGUAUAGUGGGGUCACCACAGUGGAACUGGACACCCUGGCUGCUGAGACAGCCGCGACCUUGACCACGAAGCACCCUGACUAUGCC	0.163

Single results of other studies
Starting sequence: PafA, mature enzyme, eGFP fusion (Elizabethkingia meningoseptica, UniProt Q9KJX5); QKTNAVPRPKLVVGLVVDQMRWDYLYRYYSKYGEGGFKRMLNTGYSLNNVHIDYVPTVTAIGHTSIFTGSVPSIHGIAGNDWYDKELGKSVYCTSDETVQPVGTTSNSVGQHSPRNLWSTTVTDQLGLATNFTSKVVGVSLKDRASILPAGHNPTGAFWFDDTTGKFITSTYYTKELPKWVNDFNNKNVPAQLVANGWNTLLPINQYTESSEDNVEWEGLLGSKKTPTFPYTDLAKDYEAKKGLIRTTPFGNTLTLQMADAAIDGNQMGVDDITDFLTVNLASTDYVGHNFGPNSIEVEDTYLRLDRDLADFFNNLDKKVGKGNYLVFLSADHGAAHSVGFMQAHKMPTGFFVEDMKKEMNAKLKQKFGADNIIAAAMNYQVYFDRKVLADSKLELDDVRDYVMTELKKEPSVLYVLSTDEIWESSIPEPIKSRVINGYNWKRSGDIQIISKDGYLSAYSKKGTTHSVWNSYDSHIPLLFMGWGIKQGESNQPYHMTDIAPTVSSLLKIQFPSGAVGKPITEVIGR
Change	target	test	test system	conditions	how to read	quantity	result
V139G	vanadate, free oxyanion	microfluidic competitive inhibition	in vitro, cell-free expressed	not given, derived from inhibition constants, unchanged parent 676 nM	lower = stronger binding	oxyanion analog dissociation constant	617 nM

Excerpt of the above (sample 3):
Strand	bound/input enrichment [ratio]
AAAGAGAAACUAAAGCAACUAAUAGAGAAGAGGAUUGGCAAAGAGAAUUUCAUAGAGAAACUAGGAUUUAUUAGCAAACAUGAGUUAGUAUUCCAGACGUCUCAGAAACCCCAGCCAAAC	3.18
UCAGGAACCCAGACAAAUAUGAAUGUAAAUGAAGUCAUUAGCAAUAGAGCAAUUGAAAUGUUAGGAGGUGAACUUGGCAGCAAGAAGCCUGUGCACCCCAAUGAUCAUGUUAACAAAAGC	1.8
